Measured values collected from several papers.
Compare with care: the assays were run in different laboratories. ± gives the spread as reported.

Compound | assay | system | conditions | how to read | measurement | value
COc1cc(Nc2ncc3c(n2)-c2ccc(Cl)cc2C(c2c(F)cccc2OC)=NC3)ccc1C(=O)O | – | human, phase I | oral, 40 mg, 0 to 8 h, estimated by accumulation | – | AUC steady state | 7480 ± 4460 ng·h/mL
COc1cc(Nc2ncc3c(n2)-c2ccc(Cl)cc2C(c2c(F)cccc2OC)=NC3)ccc1C(=O)O | – | human, plasma | oral, 50 mg twice daily, day 7, steady state geometric mean | – | AUC dosing interval | 20.9 µM·h
CCCCCCCCCCCCCCC[C@H](O)[C@@H](N)CO | – | human, phase I, plasma | intravenous, 840 mg/m^2, day 1, monotherapy | – | AUC | 110 µM·h
CCOc1ccc(Cc2cc([C@]34OC[C@](CO)(O3)[C@@H](O)[C@H](O)[C@H]4O)ccc2Cl)cc1 | pooled meta-analysis | human, UGT1A9 -2152 heterozygous, plasma | oral, dose not given | reference: wild type | AUC dose-proportionality slope fold change | 0.988
O=c1[nH]cc(F)c(=O)[nH]1 | – | human, plasma | intravenous, 2400 mg/m^2 maintenance, cycle 1 without vorinostat, once-daily cohort | – | AUC | 29900 ± 6660 ng·h/mL
CC(C)c1nc(N(C)S(C)(=O)=O)nc(-c2ccc(F)cc2)c1/C=C/[C@@H](O)C[C@@H](O)CC(=O)O | – | human, plasma | oral, dose not given, added: finerenone 40 mg steady state simultaneous | reference: compound alone | AUC increase | 14%
CO[C@H]1C[C@@H]2CC[C@@H](C)[C@@](O)(O2)C(=O)C(=O)N2CCCC[C@H]2C(=O)O[C@H]([C@H](C)C[C@@H]2CC[C@@H](O)[C@H](OC)C2)CC(=O)[C@H](C)/C=C(\C)[C@@H](O)[C@@H](OC)C(=O)[C@H](C)C[C@H](C)/C=C/C=C/C=C/1C | – | human, whole blood | oral, 10 mg, mean | – | AUC | 615 ng·h/mL
CC(C)c1nc(CN(C)C(=O)N[C@H](C(=O)N[C@@H](Cc2ccccc2)C[C@H](O)[C@H](Cc2ccccc2)NC(=O)OCc2cncs2)C(C)C)cs1 | – | human, plasma | oral, 400 mg twice daily | – | AUC | 83 µM·h
Cc1nc(-c2ccc(OCC(C)C)c(C#N)c2)sc1C(=O)O | – | human male, plasma | oral, 80 mg, added: verinurad 2.5 mg | reference: with over without verinurad | AUC ratio | 96.2%
CCCCCCOC(=O)NC(=N)c1ccc(NCc2nc3cc(C(=O)N(CCC(=O)OCC)c4ccccn4)ccc3n2C)cc1 | – | human | oral, 75 mg, dabigatran free and total, added: cilofexor multiple dose | reference: cpd alone | AUC and Cmax | no effect
COc1ccc(-c2ccc3c(N4CCOC[C@@H]4C)nc(N4CCOC[C@@H]4C)nc3n2)cc1CO | – | human, plasma | oral, 20 mg twice daily, oral solution | – | AUC at steady state | 47 to 74.6 ng·h/mL
CCOc1ccc(Cc2cc([C@]34OC[C@](CO)(O3)[C@@H](O)[C@H](O)[C@H]4O)ccc2Cl)cc1 | – | human, type 2 diabetes, moderate renal impairment, plasma | oral, 15 mg | – | AUC | 2080 ng·h/mL
Cc1[nH]c(/C=C2\C(=O)Nc3ccccc32)c(C)c1CCC(=O)O | HPLC-UV | human, plasma | oral, 500 mg/m^2 twice daily, day 28 | – | AUC | 61200 ng·h/mL

Excerpt of the above:
Compound | assay | system | conditions | how to read | measurement | value
O=c1[nH]cc(F)c(=O)[nH]1 | – | human, plasma | intravenous, 2400 mg/m^2 maintenance, cycle 1 without vorinostat, once-daily cohort | – | AUC | 29900 ± 6660 ng·h/mL
